Assay results from different studies.
± marks the error that the study gave.
CD38: ADP-ribosyl cyclase/cyclic ADP-ribose hydrolase 1 (CD38, Homo sapiens, UniProt P28907)
Chain of UniProt P28907 (whole entry, looked up): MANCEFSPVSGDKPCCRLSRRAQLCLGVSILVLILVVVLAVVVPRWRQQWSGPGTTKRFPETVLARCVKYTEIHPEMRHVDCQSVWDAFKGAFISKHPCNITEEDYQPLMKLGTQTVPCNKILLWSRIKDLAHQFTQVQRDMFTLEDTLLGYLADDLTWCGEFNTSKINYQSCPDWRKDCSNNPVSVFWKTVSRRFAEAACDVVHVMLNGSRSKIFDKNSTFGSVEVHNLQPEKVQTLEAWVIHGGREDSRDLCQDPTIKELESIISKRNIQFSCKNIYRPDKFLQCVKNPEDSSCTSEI
T1: RNA aptamer; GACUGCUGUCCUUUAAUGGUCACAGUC
T2: RNA aptamer; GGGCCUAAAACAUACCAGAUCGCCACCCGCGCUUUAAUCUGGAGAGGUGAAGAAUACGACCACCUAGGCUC
Chain of UniProt P16257 (whole entry, looked up): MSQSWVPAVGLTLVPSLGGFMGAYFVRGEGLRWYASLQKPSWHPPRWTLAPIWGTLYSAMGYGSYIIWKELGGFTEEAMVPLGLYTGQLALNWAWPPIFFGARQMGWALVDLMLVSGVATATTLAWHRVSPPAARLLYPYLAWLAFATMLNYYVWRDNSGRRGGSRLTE
Chain of UniProt O60603 (whole entry, looked up): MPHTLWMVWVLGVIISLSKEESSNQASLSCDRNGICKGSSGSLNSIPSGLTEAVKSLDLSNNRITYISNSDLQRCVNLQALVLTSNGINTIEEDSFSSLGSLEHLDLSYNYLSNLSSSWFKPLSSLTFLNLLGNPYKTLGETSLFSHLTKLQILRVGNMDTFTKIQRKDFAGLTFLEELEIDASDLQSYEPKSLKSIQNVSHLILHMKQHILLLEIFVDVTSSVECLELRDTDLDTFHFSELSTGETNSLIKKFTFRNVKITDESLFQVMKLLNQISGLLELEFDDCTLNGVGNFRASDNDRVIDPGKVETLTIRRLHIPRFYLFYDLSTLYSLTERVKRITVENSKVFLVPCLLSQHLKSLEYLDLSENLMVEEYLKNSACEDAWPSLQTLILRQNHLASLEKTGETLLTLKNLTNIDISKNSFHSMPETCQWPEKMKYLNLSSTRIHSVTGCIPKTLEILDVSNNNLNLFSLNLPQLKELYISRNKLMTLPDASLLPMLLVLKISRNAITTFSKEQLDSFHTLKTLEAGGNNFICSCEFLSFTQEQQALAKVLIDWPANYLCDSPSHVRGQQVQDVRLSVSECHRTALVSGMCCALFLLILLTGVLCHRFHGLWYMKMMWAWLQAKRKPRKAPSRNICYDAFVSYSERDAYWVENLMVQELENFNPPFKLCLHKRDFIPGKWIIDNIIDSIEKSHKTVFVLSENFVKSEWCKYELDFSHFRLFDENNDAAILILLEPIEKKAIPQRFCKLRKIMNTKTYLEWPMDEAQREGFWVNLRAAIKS
Chain of UniProt Q03431 (whole entry, looked up): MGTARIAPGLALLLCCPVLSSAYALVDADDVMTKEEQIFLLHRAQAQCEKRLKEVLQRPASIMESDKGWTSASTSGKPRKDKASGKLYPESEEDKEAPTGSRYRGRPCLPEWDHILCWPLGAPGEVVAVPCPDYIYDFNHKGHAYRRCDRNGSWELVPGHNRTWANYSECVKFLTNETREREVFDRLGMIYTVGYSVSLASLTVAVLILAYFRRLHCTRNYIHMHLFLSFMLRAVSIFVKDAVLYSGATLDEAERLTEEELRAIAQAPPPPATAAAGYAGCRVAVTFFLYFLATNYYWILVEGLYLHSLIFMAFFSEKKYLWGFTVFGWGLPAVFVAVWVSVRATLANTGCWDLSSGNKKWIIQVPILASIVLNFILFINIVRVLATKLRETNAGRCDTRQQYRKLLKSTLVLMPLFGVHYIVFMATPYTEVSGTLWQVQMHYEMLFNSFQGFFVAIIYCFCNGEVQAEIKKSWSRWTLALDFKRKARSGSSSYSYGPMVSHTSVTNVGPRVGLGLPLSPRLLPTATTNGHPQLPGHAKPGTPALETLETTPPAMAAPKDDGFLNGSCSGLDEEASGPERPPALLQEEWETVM
Chain of UniProt P50391 (whole entry, looked up): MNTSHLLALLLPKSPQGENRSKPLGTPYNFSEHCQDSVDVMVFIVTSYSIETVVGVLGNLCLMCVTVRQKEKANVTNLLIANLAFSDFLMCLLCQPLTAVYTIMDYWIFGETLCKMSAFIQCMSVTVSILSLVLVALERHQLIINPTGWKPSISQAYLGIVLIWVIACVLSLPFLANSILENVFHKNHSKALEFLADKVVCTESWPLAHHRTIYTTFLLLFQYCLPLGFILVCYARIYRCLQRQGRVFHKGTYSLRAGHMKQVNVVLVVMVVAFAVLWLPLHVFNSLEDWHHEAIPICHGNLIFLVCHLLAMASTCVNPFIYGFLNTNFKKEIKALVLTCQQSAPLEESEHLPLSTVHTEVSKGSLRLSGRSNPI
Chain of UniProt P05067 (whole entry, looked up): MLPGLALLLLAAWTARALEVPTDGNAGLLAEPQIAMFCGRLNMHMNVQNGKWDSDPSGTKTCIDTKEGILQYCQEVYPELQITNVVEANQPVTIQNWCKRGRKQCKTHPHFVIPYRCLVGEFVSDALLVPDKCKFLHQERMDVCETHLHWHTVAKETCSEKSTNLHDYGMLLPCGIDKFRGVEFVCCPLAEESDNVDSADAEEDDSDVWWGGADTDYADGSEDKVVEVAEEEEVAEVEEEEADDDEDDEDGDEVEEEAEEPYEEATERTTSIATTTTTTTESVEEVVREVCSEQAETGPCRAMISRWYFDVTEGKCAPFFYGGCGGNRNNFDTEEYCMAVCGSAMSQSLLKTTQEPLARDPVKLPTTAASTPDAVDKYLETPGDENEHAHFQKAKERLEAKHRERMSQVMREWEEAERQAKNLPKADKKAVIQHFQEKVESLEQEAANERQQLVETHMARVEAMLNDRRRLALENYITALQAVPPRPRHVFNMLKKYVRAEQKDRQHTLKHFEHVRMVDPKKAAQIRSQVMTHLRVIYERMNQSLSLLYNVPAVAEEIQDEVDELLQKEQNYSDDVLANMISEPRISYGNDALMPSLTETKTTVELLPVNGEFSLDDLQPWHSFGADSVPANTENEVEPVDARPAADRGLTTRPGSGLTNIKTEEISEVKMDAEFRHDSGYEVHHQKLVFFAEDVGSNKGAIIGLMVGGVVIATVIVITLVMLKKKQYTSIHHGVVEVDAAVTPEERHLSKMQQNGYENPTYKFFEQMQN
Chain of UniProt O66465 (whole entry, unmodified, looked up): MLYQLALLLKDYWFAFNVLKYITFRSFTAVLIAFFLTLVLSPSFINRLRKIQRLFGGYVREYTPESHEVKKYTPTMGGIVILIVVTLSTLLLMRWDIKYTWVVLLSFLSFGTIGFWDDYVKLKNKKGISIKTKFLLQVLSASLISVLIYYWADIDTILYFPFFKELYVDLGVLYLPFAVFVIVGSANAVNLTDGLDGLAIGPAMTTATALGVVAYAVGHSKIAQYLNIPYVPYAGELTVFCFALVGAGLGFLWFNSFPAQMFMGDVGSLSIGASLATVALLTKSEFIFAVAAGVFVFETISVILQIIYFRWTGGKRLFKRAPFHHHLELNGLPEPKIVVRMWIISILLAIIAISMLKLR
Chain of UniProt G5EFS4 (whole entry, looked up): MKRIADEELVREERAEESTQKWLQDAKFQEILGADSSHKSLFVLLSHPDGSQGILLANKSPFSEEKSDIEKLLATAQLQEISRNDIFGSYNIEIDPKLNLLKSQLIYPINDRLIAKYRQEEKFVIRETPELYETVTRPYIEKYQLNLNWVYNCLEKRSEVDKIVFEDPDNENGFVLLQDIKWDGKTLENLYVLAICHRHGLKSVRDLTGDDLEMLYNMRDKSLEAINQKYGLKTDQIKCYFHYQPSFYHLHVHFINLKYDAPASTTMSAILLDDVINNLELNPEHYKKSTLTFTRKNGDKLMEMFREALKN
Chain of UniProt P12004 (whole entry, looked up): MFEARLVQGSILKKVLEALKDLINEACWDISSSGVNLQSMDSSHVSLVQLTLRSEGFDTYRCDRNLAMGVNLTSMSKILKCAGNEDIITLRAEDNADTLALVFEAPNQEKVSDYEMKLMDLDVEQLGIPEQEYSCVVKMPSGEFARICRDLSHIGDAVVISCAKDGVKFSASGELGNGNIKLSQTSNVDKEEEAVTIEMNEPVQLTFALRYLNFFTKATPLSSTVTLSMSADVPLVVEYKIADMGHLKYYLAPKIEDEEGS
Chain of UniProt P16050 (whole entry, looked up): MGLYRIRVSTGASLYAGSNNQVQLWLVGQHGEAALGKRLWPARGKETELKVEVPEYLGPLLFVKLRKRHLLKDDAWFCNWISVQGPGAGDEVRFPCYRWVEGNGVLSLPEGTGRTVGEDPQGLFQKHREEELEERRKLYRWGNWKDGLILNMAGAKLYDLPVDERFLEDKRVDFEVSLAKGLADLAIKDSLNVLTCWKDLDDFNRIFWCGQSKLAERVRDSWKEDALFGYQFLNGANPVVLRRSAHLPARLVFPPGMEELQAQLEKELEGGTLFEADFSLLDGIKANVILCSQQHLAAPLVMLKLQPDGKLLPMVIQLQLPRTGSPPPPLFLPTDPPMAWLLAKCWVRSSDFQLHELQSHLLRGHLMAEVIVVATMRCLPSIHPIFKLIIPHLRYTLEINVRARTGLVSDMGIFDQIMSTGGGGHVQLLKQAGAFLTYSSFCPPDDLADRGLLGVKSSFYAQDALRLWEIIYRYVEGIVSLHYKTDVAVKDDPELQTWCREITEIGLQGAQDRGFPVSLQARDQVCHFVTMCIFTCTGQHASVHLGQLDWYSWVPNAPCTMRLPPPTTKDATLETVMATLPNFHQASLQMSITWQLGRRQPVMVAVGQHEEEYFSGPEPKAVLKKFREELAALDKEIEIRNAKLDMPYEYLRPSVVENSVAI
Chain of UniProt P48729 (whole entry, looked up): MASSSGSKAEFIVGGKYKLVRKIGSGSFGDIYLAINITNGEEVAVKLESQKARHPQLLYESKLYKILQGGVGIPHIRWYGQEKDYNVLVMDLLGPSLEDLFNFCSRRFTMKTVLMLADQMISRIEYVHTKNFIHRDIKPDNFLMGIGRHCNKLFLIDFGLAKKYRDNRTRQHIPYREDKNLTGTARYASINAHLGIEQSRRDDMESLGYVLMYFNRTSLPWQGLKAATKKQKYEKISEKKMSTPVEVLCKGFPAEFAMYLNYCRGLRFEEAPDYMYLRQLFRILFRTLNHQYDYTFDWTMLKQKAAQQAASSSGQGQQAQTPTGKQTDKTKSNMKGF

SMILES = CC(=O)[O][Ag]=[c]1n(C)ccn1CC([O-])c1ccccc1.[Na+] (stereo not drawn); target = Actin, alpha skeletal muscle (ACTA1, Oryctolagus cuniculus, UniProt P68135); assay = actin polymerization; conditions = 5 µM; quantity = time to minimum; result = ~9 min
SMILES = CSCC[C@H](NC(=O)[C@H](CO)NC(=O)[C@@H](NC(=O)[C@H](CCC(N)=O)NC(C)=O)[C@@H](C)O)C(=O)N[C@H](C(=O)N[C@@H](CC(=O)O)C(=O)N[C@@H](Cc1ccccc1)C(=O)N[C@@H](Cc1ccc(O)cc1)C(=O)N[C@@H](Cc1c[nH]cn1)C(=O)N[C@@H](CO)C(N)=O)[C@@H](C)O; target = Proliferating cell nuclear antigen (PCNA, Homo sapiens, UniProt P12004); assay = isothermal titration calorimetry; conditions = concentration not given, pH 7.4, 25 °C, 300 mM NaCl, added: p21 peptide; quantity = binding stoichiometry; result = 0.71 ± 0.08
SMILES = Cc1cc(O)cc2c1C(=O)c1c(cc3oc(=O)cc(-c4ccccc4)c3c1O)C2=O; target = mushroom tyrosinase; assay = enzyme activity; conditions = 25 µg/mL, added: L-DOPA; quantity = inhibition; result = 28.92 ± 0.11%
SMILES = NC[C@@H]1O[C@H](O[C@H]2[C@@H](O)[C@H](O[C@@H]3[C@@H](O)[C@H](N)C[C@H](N)[C@H]3O[C@H]3O[C@H](CN)[C@@H](O)[C@H](O)[C@H]3N)O[C@@H]2CO)[C@H](N)[C@@H](O)[C@@H]1O; target = T1, RNA aptamer; assay = UV melting; conditions = 1 µM RNA, 10 µM molecule, pH 6.8, NaCl 100 mM; quantity = melting temperature change; result = 11.1 °C
SMILES = CN1CCN(CC(=O)N2N=C3/C(=C/c4ccccc4)CCCC3C2c2ccccc2)CC1 (mixture of isomers); target = Polyunsaturated fatty acid lipoxygenase ALOX15 (ALOX15, Homo sapiens, UniProt P16050); assay = enzyme activity, activator; conditions = pH 7.5; quantity = Emax; result = 242%
SMILES = C[C@H]1c2cccc(O)c2C(=O)C2=C(O)[C@]3(O)C(=O)C(C(N)=O)=C(O)[C@@H](N(C)C)[C@@H]3[C@@H](O)[C@@H]21; target = T2, RNA aptamer; assay = fluorescence titration; conditions = pH 7.5, 25 °C, MgCl2 10 mM; quantity = Kd; result = 0.118 µM
SMILES = CC[C@H](C)[C@H](NC(=O)[C@H](CCC(=O)O)NC(=O)[C@H](CO)NC(=O)[C@@H](NC(=O)[C@@H](N)CO)C(C)C)C(=O)N[C@@H](CCC(N)=O)C(=O)N[C@@H](CC(C)C)C(=O)N[C@@H](CCSC)C(=O)N[C@@H](Cc1c[nH]cn1)C(=O)N[C@@H](CC(N)=O)C(=O)N[C@@H](CC(C)C)C(=O)NCC(=O)N[C@@H](CCCCN)C(=O)N[C@@H](Cc1c[nH]cn1)C(=O)N[C@@H](CC(C)C)C(=O)N[C@@H](CC(N)=O)C(=O)N[C@@H](CO)C(=O)N[C@@H](CCSC)C(=O)N[C@@H](CCC(=O)O)C(=O)N[C@@H](CCCNC(=N)N)C(=O)N[C@H](C(=O)N[C@@H](CCC(=O)O)C(=O)N[C@@H](Cc1c[nH]c2ccccc12)C(=O)N[C@@H](CC(C)C)C(=O)N[C@@H](CCCNC(=N)N)C(=O)N[C@@H](CCCCN)C(=O)N[C@@H](CCCCN)C(=O)N[C@@H](CC(C)C)C(=O)N[C@@H](CCC(N)=O)C(=O)N[C@@H](CC(=O)O)C(=O)N[C@H](C(=O)N[C@@H](Cc1c[nH]cn1)C(=O)N[C@@H](CC(N)=O)C(=O)N[C@@H](Cc1ccccc1)C(=O)N[C@@H](CCCCNC(=O)c1ccc2c(c1)C1(OC2=O)c2ccc(N(C)C)cc2Oc2cc(N(C)C)ccc21)C(N)=O)C(C)C)C(C)C; target = Parathyroid hormone/parathyroid hormone-related peptide receptor (PTH1R, Homo sapiens, UniProt Q03431); assay = binding, NanoBRET; conditions = pH 7.5, HEPES buffer; quantity = koff; result = 0.0049 ± 0.002 s⁻¹
SMILES = Cc1ccc2c(c1Br)C(O)(CC(=O)c1ccc3c(c1)OCO3)C(=O)N2 (stereo not drawn); target = Uncharacterized protein (Trypanosoma brucei brucei, UniProt Q386Q8); assay = binding, surface plasmon resonance; quantity = Rmax; result = 30.67 ± 0.2 RU
SMILES = CCCCCCCCCCCCCCCC(=O)OC[C@H](CSC[C@H](NC(=O)COCC(=O)NCCCOCCOCCOCCCNC(=O)CN(CCN(CCN(CC(=O)O)CC(=O)O)CC(=O)O)CC(=O)O)C(=O)NCC(=O)N[C@H](CO)C(=O)NCCCOCCOCCOCCCNC(=O)COCC(N)=O)OC(=O)CCCCCCCCCCCCCCC; target = Toll-like receptor 2 (TLR2, Homo sapiens, UniProt O60603); assay = europium TRF saturation binding; system = SU.86.86; quantity = Bmax; result = 270000 AFU
SMILES = [123I]c1ccc2nc(-c3ccc(-n4ccnn4)nc3)cn2c1; target = Amyloid-beta precursor protein, amyloid-beta (APP, Homo sapiens, UniProt P05067); assay = SPECT; system = Alzheimer's disease patients, subcortical white matter; conditions = 150 to 240 min; scale = relative to: cerebellum; quantity = SUVR; result = 0.98 ± 0.09
SMILES = CC(C)c1cccc(C(C)C)c1N1CCN(c2c(C(C)C)cccc2C(C)C)C1=[Se].[Cl][Ag]; target = Thioredoxin reductase 1, cytoplasmic (TXNRD1, Homo sapiens, UniProt Q16881); system = H157; conditions = 1 µM, 24 h; scale = relative to: compound over auranofin; quantity = relative TrxR inhibition; result = 2.4
SMILES = Cc1cn([C@@H]2C[C@@H](O)[C@H](COP(=O)(O)O)O2)c(=O)[nH]c1=O; target = Thymidylate kinase (DTYMK, Homo sapiens, UniProt P23919); assay = substrate, coupled spectrophotometric; scale = relative to: D-dTMP; quantity = relative catalytic efficiency; result = ~0.7%
SMILES = O=C(CCO)c1ccc(O)cc1; target = Alpha-mannosidase (Canavalia ensiformis, UniProt C0HJB3); assay = binding, surface plasmon resonance; conditions = 25 °C; quantity = koff; result = 0.00705 s⁻¹
SMILES = CC(=O)NCCN(CC(=O)NCCN(CC(=O)NCCN(CC(=O)NCCC(N)=O)C(=O)[C@@H](N)Cc1ccccc1)C(=O)[C@@H](N)CCCNC(=N)N)C(=O)[C@@H](N)Cc1ccccc1; target = HIV-1 TAR RNA; conditions = extrapolated to 1 M KCl; quantity = non-electrostatic ΔG°; result = -30.4 ± 0.1 kJ/mol
SMILES = NCCCC[C@H](NC(=O)[C@H](C/C=C/C[C@H](NC(=O)[C@@H]1CCCN1)C(=O)N[C@@H](CCCCN)C(=O)NCCCN)NC(=O)[C@@H]1CCCN1)C(=O)NCCCN; target = HIV-1 frameshift site RNA; assay = SPR; quantity = residence time; result = 35 s
SMILES = CC(=O)NCCN(CC(=O)NCCN(CC(=O)NCCN(CC(=O)NCCC(N)=O)C(=O)C[C@@H](N)Cc1ccccc1)C(=O)C[C@@H](N)Cc1ccccc1)C(=O)C[C@@H](N)CCCNC(=N)N; target = HIV-1 TAR RNA; quantity = non-electrostatic TΔS°; result = 7.2 ± 0.8 kJ/mol
SMILES = CC(=O)N[C@@H](Cc1ccc(O)cc1)C(=O)N[C@@H](CCCNC(=N)NC(=O)NCCCCN)C(=O)N[C@@H](CC(C)C)C(=O)N[C@@H](CCCNC(=N)N)C(=O)N[C@@H](Cc1ccc(O)cc1)C(N)=O; target = Neuropeptide Y receptor type 4 (NPY4R, Homo sapiens, UniProt P50391); assay = calcium mobilization, agonist, aequorin; system = CHO-hY4-Gqi5-mtAEQ; conditions = concentration not given, unit not given; scale = relative to: 1 µM human pancreatic polypeptide; quantity = intrinsic activity; result = 0.61
SMILES = Nc1cnn2ccc(-c3ccc4c(c3)CN([C@H]3CCC(=O)NC3=O)C4=O)nc12; target = Cereblon/Casein kinase I alpha (CSNK1A1/CRBN, Homo sapiens, UniProt P48729+Q96SW2); assay = protein level, degrader, luciferase; system = MOLT-4; quantity = Dmax; result = 31%
SMILES = CC(=O)NCCN(CCC(=O)NCCN(CCC(=O)NCCN(CCC(=O)NCCC(N)=O)C(=O)[C@@H](N)Cc1ccccc1)C(=O)[C@@H](N)CCCNC(=N)N)C(=O)[C@@H](N)Cc1ccccc1; target = HIV-1 TAR RNA; conditions = 25 °C; quantity = binding free energy ΔG°; result = -37.5 ± 2.9 kJ/mol
SMILES = CC1=C(/C=C/C(C)=C/C=C/C(C)=C/C=O)C(C)(C)CCC1; target = Cyclic nucleotide-gated channel alpha-1 (CNGA1, Bos taurus, UniProt Q00194); assay = ion current, patch clamp; conditions = 200 nM, switch +50 to -50 mV, added: cGMP 2 mM; quantity = time constant of current decrease; result = 44 s
SMILES = CC(C)CCC[C@@H](C)[C@H]1CC[C@H]2[C@@H]3CC=C4C[C@@H](OS(=O)(=O)O)CC[C@]4(C)[C@H]3CC[C@]12C; target = Prothrombin (F2, Homo sapiens, UniProt P00734); assay = Spectrozyme TH hydrolysis; conditions = 17 µM, pH 7.4, 25 °C; quantity = Vmax; result = 31.3 ± 1.8 mAU/min
SMILES = CCCCCCCCC(=O)Nc1ccc(OC)nc1C; target = Liver carboxylesterase 1 (CES1, Homo sapiens, UniProt P23141); assay = substrate; conditions = 50 µM, pH 8, 37 °C, enzyme purity 25%; quantity = specific activity; result = 390 pmol/min/µg
SMILES = CN1C(=O)/C(=C/c2cc(Cl)cc(Br)c2O)SC1=S; target = CD38; assay = cyclase activity, fluorometric; conditions = 50 µM, added: NGD+ substrate; scale = relative to: untreated; quantity = remaining activity; result = 19.3 ± 11.2%
SMILES = NC(=O)C1CCNC(=O)C(CCCNC(=O)c2cnccn2)NC(=O)C(Cc2ccco2)NC(=O)C(CC=Cc2ccccc2)NC(=O)C=CC(=O)N1 (stereo not drawn); target = Mitogen-activated protein kinase 14 (MAPK14, Homo sapiens, UniProt Q16539); assay = DNA-templated library selection; conditions = one selection round; quantity = enrichment factor; result = 0.84
SMILES = BP(=O)(OP(=O)([O-])OC[C@H]1O[C@@H](n2c[n+](C)c3c(O)nc(N)nc32)[C@H](O)[C@@H]1O)OP(=O)(O)OC[C@H]1O[C@@H](n2cnc3c(=O)[nH]c(N)nc32)[C@H](O)[C@@H]1O (stereo partly drawn); target = m7GpppX diphosphatase (dcs-1, Caenorhabditis elegans, UniProt G5EFS4); assay = hydrolysis by DcpS, substrate, HPLC; conditions = 15 µM, 90 min, pH 7.6, 20 °C, enzyme 200 nM; quantity = cleavage; result = 100%
SMILES = O=c1c(O)c(-c2ccc(O)cc2O)oc2cc(O)cc(O)c12; target = CD38; assay = hydrolase activity, fluorometric; conditions = 50 µM, added: ε-NAD+ substrate; scale = relative to: untreated; quantity = remaining activity; result = 87.2 ± 3.4%
SMILES = COc1ccc(CC[N+](C)(C)CCCC(C#N)(c2ccc(OC)c(OC)c2)C(C)C)cc1OC (stereo not drawn); target = Potassium channel subfamily T member 2 (Homo sapiens, UniProt Q6UVM3); assay = ion current, inhibitor, inside-out patch clamp; system = Xenopus oocytes; conditions = 100 µM; quantity = time to block; result = < 1 min
SMILES = CC(C)CC(NC(=O)C(NC(=O)NC(C(=O)O)C(C)C)C1CCNC(=N)N1)C(=O)NCCCNC(C(=O)O)C(OC1OC(CN)C(O)C1O)C1OC(n2ccc(=O)[nH]c2=O)C(O)C1O (stereo not drawn); target = Phospho-N-acetylmuramoyl-pentapeptide-transferase (mraY, Aquifex aeolicus, UniProt O66465, Q305A); assay = ITC; conditions = Q305A mutant; quantity = ΔS; result = 0.1 ± 1 cal/mol/K
SMILES = CC(=O)NCCN(CCC(=O)NCCN(CCC(=O)NCCN(CCC(=O)NCCC(N)=O)C(=O)[C@@H](N)CCCCN)C(=O)[C@@H](N)Cc1ccccc1)C(=O)[C@@H](N)Cc1ccccc1; target = HIV-1 TAR RNA; conditions = extrapolated to 1 M KCl; quantity = non-electrostatic ΔG°; result = -33.9 ± 0.4 kJ/mol
SMILES = CCc1cc(C)nc2c(CC(=O)N(CC)CC)c(-c3ccc(OCC[18F])cc3)nn12; target = Translocator protein (Tspo, Rattus norvegicus, UniProt P16257); assay = two-tissue compartment model; system = rat C6 glioma model, tumor; conditions = 60 min dynamic PET; quantity = k2 efflux rate constant; result = 5.33 ± 0.973 min⁻¹
SMILES = O=C(c1cc2c(s1)CCCCC2)N1CCC(n2c(=O)[nH]c3ccccc32)CC1; target = Short transient receptor potential channel 6 (Trpc6, Mus musculus, UniProt Q61143); assay = ion current, agonist, whole-cell patch clamp; conditions = 10 µM, wild type; quantity = maximal current density; result = 95.6 ± 14.6 pA/pF
SMILES = CC(=O)NCCN(CCC(=O)NCCN(CCC(=O)NCCN(CCC(=O)NCCC(N)=O)C(=O)[C@@H](N)CCCNC(=N)N)C(=O)[C@@H](N)Cc1ccccc1)C(=O)[C@@H](N)Cc1ccccc1; target = HIV-1 TAR RNA; conditions = 25 °C; quantity = binding free energy ΔG°; result = -38.2 ± 1.7 kJ/mol
SMILES = O=P(O)(O)O[C@@H]1[C@@H](O)[C@H](O)[C@H](O)[C@H](O)[C@H]1OP(=O)(O)O; target = Inositol 1,4,5-trisphosphate-gated calcium channel ITPR1, N-terminal region (Itpr1, Rattus norvegicus, UniProt P29994, del318-332); assay = [3H]IP3 competition binding; system = N-terminal fragment; conditions = cytosol-like medium; quantity = Hill coefficient; result = 0.8 ± 0.1
